Published values of several laboratories.
Each line is one published result; not all experiments were run side by side. Several values in a cell are separate wells, animals, samples, runs or records.
Partner: itself
B1: lacI 1-360 D149C (Escherichia coli, UniProt P03023); chain MKPVTLYDVAEYAGVSYQTVSRVVNQASHVSAKTREKVEAAMAELNYIPNRVAQQLAGKQSLLIGVATSSLALHAPSQIVAAIKSRADQLGASVVVSMVERSGVEACKAAVHNLLAQRVSGLIINYPLDDQDAIAVEAACTNVPALFLCVSDQTPINSIIFSHEDGTRLGVEHLVALGHQQIALLAGPLSSVSARLRLAGWHKYLTRNQIQPIAEREGDWSAMSGFQQTMQMLNEGIVPTAMLVANDQMALGAMRAITESGLRVGADISVVGYDDTEDSSCYIPPLTTIKQDFRLLGQTSVDRLLQLSQGQAVKGNQLLPVSLVKRKTTLAPNTQTASPRALADSLMQLARQVSRLESGQ
B2: KCNQ5 90-698 (Homo sapiens, UniProt Q9NR82); sequence looked up; chain LGKPLSYTSSQSCRRNVKYRRVQNYLYNVLERPRGWAFIYHAFVFLLVFGCLILSVFSTIPEHTKLASSCLLILEFVMIVVFGLEFIIRIWSAGCCCRYRGWQGRLRFARKPFCVIDTIVLIASIAVVSAKTQGNIFATSALRSLRFLQILRMVRMDRRGGTWKLLGSVVYAHSKELITAWYIGFLVLIFSSFLVYLVEKDANKEFSTYADALWWGTITLTTIGYGDKTPLTWLGRLLSAGFALLGISFFALPAGILGSGFALKVQEQHRQKHFEKRRNPAANLIQCVWRSYAADEKSVSIATWKPHLKALHTCSPTKKEQGEASSSQKLSFKERVRMASPRGQSIKSRQASVGDRRSPSTDITAEGSPTKVQKSWSFNDRTRFRPSLRLKSSQPKPVIDADTALGTDDVYDEKGCQCDVSVEDLTPPLKTVIRAIRIMKFHVAKRKFKETLRPYDVKDVIEQYSAGHLDMLCRIKSLQTRVDQILGKGQITSDKKSREKITAEHETTDDLSMLGRVVKVEKQVQSIESKLDCLLDIYQQVLRKGSASALALASFQIPPFECEQTSDYQSPVDSKDLSGSAQNSGCLSRSTSANISRGLQFILTPNEFS
B3: cutA1 1-112 (Escherichia coli, UniProt P69488); chain MLDEKSSNTASVVVLCTAPDEATAQDLAAKVLAEKLAACATLIPGATSLYYWEGKLEQEYEVQMILKTTVSHQQALLECLKSHHPYQTPELLVLPVTHGDTDYLSWLNASLR
B4: ABCG25 1-662 E232Q (Arabidopsis thaliana, UniProt Q84TH5); chain MSAFDGVENQMNGPDSSPRLSQDPREPRSLLSSSCFPITLKFVDVCYRVKIHGMSNDSCNIKKLLGLKQKPSDETRSTEERTILSGVTGMISPGEFMAVLGPSGSGKSTLLNAVAGRLHGSNLTGKILINDGKITKQTLKRTGFVAQDDLLYPHLTVRETLVFVALLRLPRSLTRDVKLRAAESVISELGLTKCENTVVGNTFIRGISGGERKRVSIAHELLINPSLLVLDQPTSGLDATAALRLVQTLAGLAHGKGKTVVTSIHQPSSRVFQMFDTVLLLSEGKCLFVGKGRDAMAYFESVGFSPAFPMNPADFLLDLANGVCQTDGVTEREKPNVRQTLVTAYDTLLAPQVKTCIEVSHFPQDNARFVKTRVNGGGITTCIATWFSQLCILLHRLLKERRHESFDLLRIFQVVAASILCGLMWWHSDYRDVHDRLGLLFFISIFWGVLPSFNAVFTFPQERAIFTRERASGMYTLSSYFMAHVLGSLSMELVLPASFLTFTYWMVYLRPGIVPFLLTLSVLLLYVLASQGLGLALGAAIMDAKKASTIVTVTMLAFVLTGGYYVNKVPSGMVWMKYVSTTFYCYRLLVAIQYGSGEEILRMLGCDSKGKQGASAATSAGCRFVEEEVIGDVGMWTSVGVLFLMFFGYRVLAYLALRRIKH
B5: Saro_1862 1-406 (Novosphingobium aromaticivorans, UniProt Q2G771); chain MTDKPSVLFICTQDTEEEEARFTRAALEAAGVEVVHLDPSVRRSLGGAEISPEMVAQAGGMTIEEVRALGHEGKCQDAMIRGAIAAAHEWDARHPVSGILAVGGSMGSALAGALMQSFPYGLPKLIVSTMASGFTKPYMGVKDIAMMNAVTDISGINTISRDVFRNAANAVAGMAKGYDRDKGPEKPLVLITTLGTTETSVKRIRQALESDGCEVMVFHSSGAGGPTLDGLAADKDVALVLDLSPTEILDHLFGGLADAGPDRGRAALRKGIPTILAPGNADFIIGGPIDAAEAQFPGRRYHQHNPQLTAVRTNVADLRKLADHLAANVREAKGPVRVFTPLKGFSSHDSETGHLLDLSVPGPFAEYLASVMPGHVPVTAVDAHFNDEAFSSAVIAAAREMLAAKN
B6: Pah F80R (Rattus norvegicus, UniProt P04176); sequence looked up; chain MAAVVLENGVLSRKLSDFGQETSYIEDNSNQNGAISLIFSLKEEVGALAKVLRLFEENDINLTHIESRPSRLNKDEYEFRTYLDKRTKPVLGSIIKSLRNDIGATVHELSRDKEKNTVPWFPRTIQELDRFANQILSYGAELDADHPGFKDPVYRARRKQFADIAYNYRHGQPIPRVEYTEEEKQTWGTVFRTLKALYKTHACYEHNHIFPLLEKYCGFREDNIPQLEDVSQFLQTCTGFRLRPVAGLLSSRDFLGGLAFRVFHCTQYIRHGSKPMYTPEPDICHELLGHVPLFSDRSFAQFSQEIGLASLGAPDEYIEKLATIYWFTVEFGLCKEGDSIKAYGAGLLSSFGELQYCLSDKPKLLPLELEKTACQEYSVTEFQPLYYVAESFSDAKEKVRTFAATIPRPFSVRYDPYTQRVEVLDNTQQLKILADSINSEVGILCNALQKIKS
B7: PF1070 1-140 L70A (Pyrococcus furiosus, UniProt Q8U1Y4); sequence looked up; chain MPSSSKSDFSFSTLIIPQHYLRAILKVVSSSSVEVCGFLFGKENRVLKVRFIRNRLNSPVEFEMDPEEMAKALEEAEQENLEVVGIFHSHIACPPIPSGKDLEGMKRWPVIWLIVNEKGEYKAWILSEKNKISEVKIVVE
B8: Ph-p 1288-1577 (Drosophila melanogaster, UniProt P39769); chain SISNGSKDLPKAMIKPNVLTHVIDGFIIQEANEPFPVTRQRYADKDVSDEPPKKKATMQEDIKLSGIASAPGSDMVACEQCGKMEHKAKLKRKRYCSPGCSRQAKNGIGGVGSGETNGLGTGGIVGVDAMALVDRLDEAMAEEKMQTEATPKLSESFPILGASTEVPPMSLPVQAAISAPSPLAMPLGSPLSVALPTLAPLSVVTSGAAPKSSEVNGTDRPPISSWSVDDVSNFIRELPGCQDYVDDFIQQEIDGQALLLLKEKHLVNAMGMKLGPALKIVAKVESIKEV
B9: dlg1 1-97 L14G/L15G/Y18G (Drosophila melanogaster, UniProt P31007); sequence looked up; chain MPVKKQEAHRALEGGEDGHARLSEPQDRALRIAIERVIRIFKSRLFQALLDIQEFYELTLLDDSKSIQQKTAETLQIATKWEKDGQAVKIADFIKSS
B10: CLCN3 1-818 (Homo sapiens, UniProt P51790); chain MESEQLFHRGYYRNSYNSITSASSDEELLDGAGVIMDFQTSEDDNLLDGDTAVGTHYTMTNGGSINSSTHLLDLLDEPIPGVGTYDDFHTIDWVREKCKDRERHRRINSKKKESAWEMTKSLYDAWSGWLVVTLTGLASGALAGLIDIAADWMTDLKEGICLSALWYNHEQCCWGSNETTFEERDKCPQWKTWAELIIGQAEGPGSYIMNYIMYIFWALSFAFLAVSLVKVFAPYACGSGIPEIKTILSGFIIRGYLGKWTLMIKTITLVLAVASGLSLGKEGPLVHVACCCGNIFSYLFPKYSTNEAKKREVLSAASAAGVSVAFGAPIGGVLFSLEEVSYYFPLKTLWRSFFAALVAAFVLRSINPFGNSRLVLFYVEYHTPWYLFELFPFILLGVFGGLWGAFFIRANIAWCRRRKSTKFGKYPVLEVIIVAAITAVIAFPNPYTRLNTSELIKELFTDCGPLESSSLCDYRNDMNASKIVDDIPDRPAGIGVYSAIWQLCLALIFKIIMTVFTFGIKVPSGLFIPSMAIGAIAGRIVGIAVEQLAYYHHDWFIFKEWCEVGADCITPGLYAMVGAAACLGGVTRMTVSLVVIVFELTGGLEYIVPLMAAVMTSKWVGDAFGREGIYEAHIRLNGYPFLDAKEEFTHTTLAADVMRPRRNDPPLAVLTQDNMTVDDIENMINETSYNGFPVIMSKESQRLVGFALRRDLTIAIESARKKQEGIVGSSRVCFAQHTPSLPAESPRPLKLRSILDMSPFTVTDHTPMEIVVDIFRKLGLRQCLVTHNGRLLGIITKKDILRHMAQTANQDPASIMFN
B11: APOE mature (Cavia porcellus); chain ENLYFQGDPDVEPEVEVREPAVWQSGQPWELALSRFWDYLRWVQTLSDQVQEELLSNQVTQELTLLIEDTMKEVKDYKAELEKELGPVAEDTKARLAKELQAAQARLGADMEEVRNRLSQYRSEVQAMLGQSSEELRARLTSHLRKMRKRLQRDIDELQKRMAVYKAGAQEGAERGVSAIRERLGSLIEQGRLQALTSQPLQERAQAWGEQMRGRLEKVGSQARDRLEEVREQMEEVRVKVEEQAEAFQARLKSWFEPMMEDMRRQWAELIQKVQVAVGASTSAPSQEP
B12: ACAT1 35-427 Y214F (Homo sapiens, UniProt P24752); pY407; chain SKPTLKEVVIVSATRTPIGSFLGSLSLLPATKLGSIAIQGAIEKAGIPKEEVKEAYMGNVLQGGEGQAPTRQAVLGAGLPISTPCTTINKVCASGMKAIMMASQSLMCGHQDVMVAGGMESMSNVPYVMNRGSTPYGGVKLEDLIVKDGLTDVYNKIHMGSCAENTAKKLNIARNEQDAFAINSYTRSKAAWEAGKFGNEVIPVTVTVKGQPDVVVKEDEEYKRVDFSKVPKLKTVFQKENGTVTAANASTLNDGAAALVLMTADAAKRLNVTPLARIVAFADAAVEPIDFPIAPVYAASMVLKDVGLKKEDIAMWEVNEAFSLVVLANIKMLEIDPQKVNINGGAVSLGHPIGMSGARIVGHLTHALKQGEYGLASICNGGGGASAMLIQKL
B13: protein 1-299 W76Y (Sulfolobus tokodaii, UniProt Q96Y14); chain MMIIVGVDAGGTKTKAVAYDCEGNFIGEGSSGPGNYHNVGLTRAIENIKEAVKIAAKGEADVVGMGVAGLDSKFDYENFTPLASLIAPKVIIQHDGVIALFAETLGEPGVVVIAGTGSVVEGYNGKEFLRVGGRGWLLSDDGSAYWVGRKALRKVLKMMDGLENKTILYNKVLKTINVKDLDELVMWSYTSSCQIDLVASIAKAVDEAANEGDTVAMDILKQGAELLASQAVYLARKIGTNKVYLKGGMFRSNIYHKFFTLYLEKEGIISDLGKRSPEIGAVILAYKEVGCDIKKLISD
Sequence of UniProt Q12154 (whole entry, looked up): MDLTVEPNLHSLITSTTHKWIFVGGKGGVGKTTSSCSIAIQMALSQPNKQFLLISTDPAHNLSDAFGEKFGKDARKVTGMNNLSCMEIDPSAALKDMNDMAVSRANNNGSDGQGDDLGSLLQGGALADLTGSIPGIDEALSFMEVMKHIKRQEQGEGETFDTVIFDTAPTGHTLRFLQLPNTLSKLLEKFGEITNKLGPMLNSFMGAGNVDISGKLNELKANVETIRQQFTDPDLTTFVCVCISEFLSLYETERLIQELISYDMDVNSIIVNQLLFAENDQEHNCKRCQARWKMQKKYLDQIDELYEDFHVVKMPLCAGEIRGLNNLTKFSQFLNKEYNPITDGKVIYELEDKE
Sequence of UniProt Q8T390 (whole entry, looked up): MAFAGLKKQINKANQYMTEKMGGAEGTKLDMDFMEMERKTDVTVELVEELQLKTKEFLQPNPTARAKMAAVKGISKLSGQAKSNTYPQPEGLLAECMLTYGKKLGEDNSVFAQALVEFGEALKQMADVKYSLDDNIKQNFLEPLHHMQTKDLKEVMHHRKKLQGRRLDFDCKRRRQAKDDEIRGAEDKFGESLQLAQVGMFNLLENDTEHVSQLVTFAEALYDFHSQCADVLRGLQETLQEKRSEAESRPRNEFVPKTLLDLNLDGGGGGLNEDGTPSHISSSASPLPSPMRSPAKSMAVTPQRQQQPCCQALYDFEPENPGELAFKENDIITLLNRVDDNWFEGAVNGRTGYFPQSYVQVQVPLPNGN
Sequence of UniProt P42260 (whole entry, looked up): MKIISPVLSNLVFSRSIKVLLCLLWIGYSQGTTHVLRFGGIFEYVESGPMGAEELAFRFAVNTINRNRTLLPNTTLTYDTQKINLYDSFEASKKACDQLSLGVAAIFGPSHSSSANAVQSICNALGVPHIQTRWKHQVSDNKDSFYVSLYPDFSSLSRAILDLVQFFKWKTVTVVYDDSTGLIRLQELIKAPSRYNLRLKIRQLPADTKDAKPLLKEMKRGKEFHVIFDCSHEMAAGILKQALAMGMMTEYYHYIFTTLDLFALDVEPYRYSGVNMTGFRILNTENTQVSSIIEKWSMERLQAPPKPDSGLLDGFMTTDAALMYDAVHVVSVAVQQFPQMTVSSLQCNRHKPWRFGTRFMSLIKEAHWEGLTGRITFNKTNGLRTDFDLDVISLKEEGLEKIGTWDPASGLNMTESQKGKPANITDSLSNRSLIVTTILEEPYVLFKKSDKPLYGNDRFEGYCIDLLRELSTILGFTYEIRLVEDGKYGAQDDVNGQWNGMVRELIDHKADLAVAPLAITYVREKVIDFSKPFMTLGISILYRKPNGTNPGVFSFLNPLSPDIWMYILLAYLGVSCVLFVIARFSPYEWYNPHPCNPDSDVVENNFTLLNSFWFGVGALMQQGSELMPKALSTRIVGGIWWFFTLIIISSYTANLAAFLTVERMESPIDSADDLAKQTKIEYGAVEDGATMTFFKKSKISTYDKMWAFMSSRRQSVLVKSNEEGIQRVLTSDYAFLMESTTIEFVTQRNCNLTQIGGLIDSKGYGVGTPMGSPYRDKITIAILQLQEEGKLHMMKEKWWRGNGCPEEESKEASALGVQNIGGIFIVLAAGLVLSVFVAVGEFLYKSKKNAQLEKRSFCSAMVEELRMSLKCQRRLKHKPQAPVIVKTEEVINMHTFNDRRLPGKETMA

Under “subunits per oligomer”, `GET3 reduced (Saccharomyces cerevisiae, UniProt Q12154)` is recorded as 2 (SEC).
Under “subunits per oligomer”, `VSRVSHEELEDRFLRLHDENILLKQHARKQEDKIKRMATKLIRLVNDKKRYERVGG (RPGRIP1L CC1 42-97 R47H (Mus musculus, UniProt Q8CG73); sequence looked up)` is recorded as 2 (SEC-MALS).
For `B1 (lacI 1-360 D149C)`, “subunits per oligomer” read 4 (SEC).
`B2 (KCNQ5 90-698)`: “subunits per oligomer” 4 (cryo-EM).
For `B3 (cutA1 1-112)`, “subunits per oligomer” read 3 (native MS).
For `B4 (ABCG25 1-662 E232Q)`, “subunits per oligomer” read 2 (cryo-EM).
`EndoA (Drosophila melanogaster, UniProt Q8T390)`: “subunits per oligomer” 2 (SEC-SAXS).
Under “subunits per oligomer”, `B5 (Saro_1862 1-406)` is recorded as 2 (SEC).
`B6 (Pah F80R)`: “subunits per oligomer” 4 (SEC).
Under “subunits per oligomer”, `B7 (PF1070 1-140 L70A)` is recorded as 2 (SEC).
`B8 (Ph-p 1288-1577)` — result for “subunits per oligomer”: 5 (SEC-MALS; self-association).
For `B9 (dlg1 1-97 L14G/L15G/Y18G)`, “subunits per oligomer” read 8 (AUC).
`B10 (CLCN3 1-818)` — result for “subunits per oligomer”: 2 (cryo-EM; C2 symmetry).
Under “subunits per oligomer”, `B11 (APOE mature)` is recorded as 2 and 4 (cross-linking).
`B12 (ACAT1 35-427 Y214F)` — result for “subunits per oligomer”: 4 (native gel; Y214F mutant).
For `B13 (protein 1-299 W76Y)`, “subunits per oligomer” read 2 (non-reducing SDS-PAGE).
`Grik2 (Rattus norvegicus, UniProt P42260)`: “subunits per oligomer” 4 (cryo-EM).

For quick reference, copied from above:
Under “subunits per oligomer”, `B7 (PF1070 1-140 L70A)` is recorded as 2 (SEC).
